Measured values of several laboratories.
Compare with care: the assays were run in different laboratories. Numbers after ± are the reported error.
Cell line: MCF7

CC(=O)N[C@H](Cc1ccccc1)C(=O)N[C@@H](CC(=O)N[C@H](CCCNC(=N)N)C(N)=O)c1ccc2ccccc2c1
IC50 (cell growth or viability, ATP luminescence; 72 h): > 50 µM

CN(C)C(=S)N(C)N=Cc1ccccc1SSc1ccccc1C=NN(C)C(=S)N(C)C
IC50 (cell growth or viability, MTT; 72 h): 0.12 µM

C/C1=C/C[C@H]2[C@@H]3[C@@H]([C@]4(C)CO4)CC[C@@]3(C)CC[C@]2(C)C[C@H]2[C@@H](C)CC[C@@H]12
IC50 (cell growth or viability, MTT; 72 h): 117 µM

Cn1c(SCC(=O)N2CCC(=C3c4ncccc4CCc4cc(Cl)cc(Br)c43)CC2)nnc1-c1ccccc1
IC50 (cell growth or viability, SRB): 70 µM

CCCCCCCCCCCCCCn1c(-c2cccnc2)nc(-c2ccc(C)cc2)c1-c1ccc(C)cc1
IC50 (cell growth or viability, SRB; 24 h): > 100 µM

C[C@]12CC/C(=N/O)C=C1CCC1C2CC[C@]2(C)/C(=C/c3ccccn3)CCC12 (stereo partly drawn)
IC50 (cell growth or viability, MTT; 72 h): 44.9 µM

CCCN1CCN(CC(=O)N2CCN(c3cc(C)nc4ncnn34)CC2)CC1
IC50 (cell growth or viability, MTT): 53.9 µM

O=C(NNc1nc(-c2ccccc2)cs1)c1cc2c(ccc3ccccc32)oc1=O
IC50 (cell growth or viability, SRB; 72 h): 105 µM

CC1(C)[C@@H](O)CC[C@]2(C)[C@H]3C(=O)C=C4[C@@H]5C[C@@](C)(C(=O)O)CC[C@]5(C)CC[C@@]4(C)[C@]3(C)CC[C@@H]12
IC50 (cell growth or viability, MTT): > 40 µM

COc1cc(OC)c2c(c1)OCC(c1cc(OC)c(OC)cc1OC)C2=NO (stereo not drawn)
IC50 (cell growth or viability, MTT; 72 h): 110 µM

CCCCCCCCCCCCCCCOC(=O)/C=C/c1ccc(OC)c(O)c1
IC50 (cell viability, MTT; 48 h, serum-free medium): 2.8 ± 0.2 µg/mL

C[C@@H]1C(=O)CC[C@@H]2[C@]1(C)CC[C@H]1[C@@]2(C)CC[C@@]2(C)[C@@H]3CC(C)(C)CC[C@]3(C)CC[C@]12C
IC50 (cell growth or viability, SRB): > 100 µM

CSc1nc(Nc2ccc(C(=O)N/N=C/c3ccc(Cl)cc3)cc2)c(C#N)c(-c2ccccc2)n1
IC50 (cell growth or viability, MTT; 48 h): 15.3 µM

CC=C(C)C(=O)OC1C(O)C2(COC(C)=O)C(O)CC3(C)C(=CCC4C5(C)CCC(OC6OC(C(=O)OC)C(OC7OC(CO)C(O)C(O)C7O)C(O)C6OC6OC(CO)C(O)C(O)C6O)C(C)(CO)C5CCC43C)C2CC1(C)C (stereo not drawn)
IC50 (cell growth or viability, CCK-8; 48 h): 53.9 µM

CC(C)(C)c1cc2c(O)c(c1)Cc1cc(C(C)(C)C)cc(c1OCC(=O)Nc1nccs1)Cc1cc(C(C)(C)C)cc(c1O)Cc1cc(C(C)(C)C)cc(c1OCC(=O)Nc1nccs1)COC2
IC50 (cell growth or viability, MTT; 72 h): 2.7 µM

C#CCOCC1=C(C(=O)OCC)C(c2cccc(Cl)c2)N2C(=N1)Sc1ccccc12 (stereo not drawn)
IC50 (cell growth or viability, MTT): 0.055 µM

[Fe+2].c1ccc(P(=NCc2ccccn2)(c2ccccc2)[c-]2cccc2)cc1.c1ccc(P(=NCc2ccccn2)(c2ccccc2)[c-]2cccc2)cc1
IC50 (cell growth or viability, MTT; 74 h): 15 µM

COc1ccc(-c2noc(NC(=O)c3ccc(F)c(F)c3)c2C#N)c(OC)c1
IC50 (cell growth or viability, MTT; 72 h): 70 µM

CCS(=O)(=O)Oc1cc(/C=N/NC(=O)c2nc3ccccc3s2)ccc1OC
IC50 (cell growth or viability, MTT; 48 h): 78.8 µM

CC(=O)OC[C@H]1O[C@@H](Sc2nc3c4cnn(C(=O)CNc5ccc(C)cc5)c4ncn3n2)[C@H](OC(C)=O)[C@@H](OC(C)=O)[C@H]1OC(C)=O
IC50 (cell growth or viability, MTT; 48 h): 0.046 µM

CCC(C(=O)O)C1CCC(C)C(C(C)C(O)C(C)C(=O)C(CC)C2OC3(C=CC(NCc4cn(Cc5ccccc5)nn4)C4(CCC(C)(C5CCC(O)(CC)C(C)O5)O4)O3)C(C)CC2C)O1 (stereo not drawn)
IC50 (cell growth or viability, resazurin; 72 h): 0.49 µM

c1ccc(-c2cc(-c3ccc(-n4cc(-c5ccc(-c6cccs6)s5)nn4)cc3)cc(-c3ccccn3)n2)nc1
IC50 (cell growth or viability, MTS; 72 h): 1.79 µM

COc1cc(/C=C/C(=O)/C=C(O)/C=C/c2ccc(OCC(=O)N3CCOCCOCCOCC3)c(OC)c2)ccc1OCC(=O)N1CCOCCOCCOCC1
IC50 (cell growth or viability, SRB): 10.8 µM

C=CCc1cc(OC)c(OC(C)=O)c(OC)c1
IC50 (MTT; 24 h): > 50 µM

C[C@@H]1CC[C@@H]([C@](O)(COCc2ccccc2)Cn2cnc3ccccc32)[C@H](OCc2ccccc2)C1
IC50 (cell growth or viability, MTT; 72 h): 5.7 µM

Cc1ccc(-c2nc(-c3cccnc3)[nH]c2-c2ccc(C)cc2)cc1
IC50 (cell growth or viability, SRB; 24 h): > 100 µM

COc1ccc2cc3[n+](cc2c1OCc1cn(Cc2ccc(C#N)cc2)nn1)CCc1cc2c(cc1-3)OCO2
IC50 (cell growth or viability, MTT): 174 µM

CC(=O)Oc1c(/N=N/c2ccccc2)cc(Br)cc1-c1cnc2ccccc2n1
IC50 (cell growth or viability, MTT; 48 h): 17.3 µM

Brc1ccc2nc3c4ccc[n+]5c4c4c(ccc[n+]4[Ru-4]546([n+]5ccccc5-c5cccc[n+]54)[n+]4ccccc4-c4cccc[n+]46)c3nc2c1.[O-][Cl+3]([O-])([O-])O.[O-][Cl+3]([O-])([O-])O
IC50 (cell growth or viability, MTT; 72 h): > 100 µM

CCOc1cccc(/C=N/CCNc2ccccc2)c1O
IC50 (cell growth or viability, MTT; 48 h): 155 µM

O=C(NCCCCCCNc1n[n+]([O-])c2ccccc2[n+]1[O-])C(F)(F)F
IC50 (cytotoxicity, MTT; 10% FBS medium; 6 h + 18 h, hypoxia 3% O2): 46.7 ± 1 µM

Cc1c(C)c(C)[c-](C)c1C.O=Cc1c[c-]c(-c2ccccn2)cc1.[Cl-].[Ir+3]
IC50 (SRB; 24 h, 72 h recovery): 11.6 ± 0.5 µM

COC(=O)c1ccc(-n2nc(C(F)(F)F)cc2-c2cc(OC)c(OC)c(OC)c2)cc1
IC50 (cell growth or viability, SRB): 1.3 µM

O=[C]=[Re-2]1(=[C]=O)(=[C]=O)([O]C(=O)c2ccccn2)[n+]2ccc(-c3ccccc3)c3ccc4c(-c5ccccc5)cc[n+]1c4c32
IC50 (cell growth or viability, resazurin; 72 h): 1.51 µM

COc1ccc2cc3[n+](cc2c1OCc1cn(Cc2ccccc2C#N)nn1)CCc1cc2c(cc1-3)OCO2
IC50 (cell growth or viability, MTT): 209 µM

CCCCCC(C)n1c(-c2cccnc2)nc(-c2ccc(C)cc2)c1-c1ccc(C)cc1 (stereo not drawn)
IC50 (cell growth or viability, SRB; 48 h): > 100 µM

C[n+]1ccn(CC(O)c2ccccc2)[c]1[Ag-][I] (stereo not drawn)
IC50 (cell growth or viability, MTT; 72 h): 36.2 µM

CSC(=N/N=C(\C)c1ccc(S(=O)(=O)N2CCC(C)CC2)cc1)SC
IC50 (cell growth or viability, MTT): 18.8 µM

CC(C)=CCC1=C([O-])C(=O)c2ccccc2C1=O.CC(C)=CCC1=C([O-])C(=O)c2ccccc2C1=O.[Cu+2].c1ccc(-c2ccccn2)nc1
IC50 (cell viability, MTT; 24 h): 31.9 ± 1.5 µM

CC1=NN(c2ccccc2)C(c2ccccc2)C1 (stereo not drawn)
IC50 (cell growth or viability, LDH): 7.5 µM

CCCCCCCCCCCCCCCOC(=O)/C=C/c1ccc(O)cc1
IC50 (cell viability, MTT; 48 h, serum-free medium): 0.97 ± 0.1 µg/mL

COc1cc(/C=N/NC(=O)c2cc3cc(Nc4nccc(-c5cccnc5)n4)ccc3[nH]2)cc(OC)c1
IC50 (cell growth or viability, MTT; 48 h): 2.84 µM

O=C1CCCC2=C1C(c1cccs1)c1c([nH]c(=S)[nH]c1=S)O2 (stereo not drawn)
IC50 (cell growth or viability, MTT; 72 h): 15.2 µM

CCN1CCC2(CC1)C/C(=N\NC(=O)Nc1ccccc1)c1ccccc1O2
IC50 (cell growth or viability, MTT; 48 h): 6.03 µM

COc1ccc(CNC[C@](O)(COCc2ccccc2)[C@@H]2CC[C@@H](C)C[C@H]2OCc2ccccc2)cc1
IC50 (cell growth or viability, MTT; 72 h): 1.5 µM

C/C(=N\NC(=S)SCc1ccccc1)c1ccc(S(=O)(=O)N2CCC(C)CC2)cc1
IC50 (cell growth or viability, MTT): 122 µM

COc1cc([C@@H]2c3cc4c(cc3[C@H](OC(=O)CCCc3ccc(NS(=O)(=O)c5ccccc5Br)cc3)[C@H]3COC(=O)[C@H]23)OCO4)cc(OC)c1OC
IC50 (cell growth or viability, CCK-8; 24 h): 16.4 µM

NS(=O)(=O)c1ccc(/N=N/c2ccc(O)c(/C=N/c3cc([N+](=O)[O-])ccc3O)c2)cc1
IC50 (cell growth or viability, MTT; 72 h): 8.23 µM

CCNC(=S)N/N=C(\C)c1c(O)c2ccccc2oc1=O
IC50 (cell growth or viability, MTT; 48 h): 22.7 µM

O=C(/C=C/c1ccc2c(c1)C(=O)N(CCCc1ccccc1)CC2)NO
IC50 (cell growth, SRB; 72 h): 0.93 ± 0.317 µM

Cc1cc(=O)[nH]c2c(/N=N/c3ccccc3)c(O)c(/N=N/c3ccccc3)cc12
IC50 (cell growth or viability, MTT): 19.8 µg/mL

NNC(=O)Cn1ncc2c3ccccc3n(CC(=O)NN)c2c1=O
IC50 (cell growth or viability, MTT; 48 h): 5.35 µM

COC(=O)CNc1cc(C[S+]([O-])c2ccc3ccccc3c2)ccc1OC (stereo not drawn)
IC50 (cell growth or viability, MTS; 48 h): 5.77 µM

COc1c(O)cc2oc3c(Br)c(O)c(CCC(C)C)c(O)c3c(=O)c2c1CCC(C)C
IC50 (cell growth or viability; 48 h): 21.9 µM

Excerpt of the above:
O=C(NCCCCCCNc1n[n+]([O-])c2ccccc2[n+]1[O-])C(F)(F)F
IC50 (cytotoxicity, MTT; 10% FBS medium; 6 h + 18 h, hypoxia 3% O2): 46.7 ± 1 µM

COc1ccc2cc3[n+](cc2c1OCc1cn(Cc2ccccc2C#N)nn1)CCc1cc2c(cc1-3)OCO2
IC50 (cell growth or viability, MTT): 209 µM

COc1ccc(-c2noc(NC(=O)c3ccc(F)c(F)c3)c2C#N)c(OC)c1
IC50 (cell growth or viability, MTT; 72 h): 70 µM

Cn1c(SCC(=O)N2CCC(=C3c4ncccc4CCc4cc(Cl)cc(Br)c43)CC2)nnc1-c1ccccc1
IC50 (cell growth or viability, SRB): 70 µM

NNC(=O)Cn1ncc2c3ccccc3n(CC(=O)NN)c2c1=O
IC50 (cell growth or viability, MTT; 48 h): 5.35 µM

CSC(=N/N=C(\C)c1ccc(S(=O)(=O)N2CCC(C)CC2)cc1)SC
IC50 (cell growth or viability, MTT): 18.8 µM

NS(=O)(=O)c1ccc(/N=N/c2ccc(O)c(/C=N/c3cc([N+](=O)[O-])ccc3O)c2)cc1
IC50 (cell growth or viability, MTT; 72 h): 8.23 µM

c1ccc(-c2cc(-c3ccc(-n4cc(-c5ccc(-c6cccs6)s5)nn4)cc3)cc(-c3ccccn3)n2)nc1
IC50 (cell growth or viability, MTS; 72 h): 1.79 µM
